Measurements pooled from the literature.
Parts stem from different laboratories: compare values within a part only.

Block 1
Target: Histone acetyltransferase KAT6A, both winged helices, GST fusion (KAT6A, Homo sapiens, UniProt Q92794, residues 1-181)
Method: protein binding microarray
Form: double-stranded DNA, one strand shown
Medium: in vitro
Concentration: not given
Setting: 8-mer, flanks averaged, mean of 2 arrays, mostly near background
Relative to: not given
Direction: higher = stronger binding
Residues (chain): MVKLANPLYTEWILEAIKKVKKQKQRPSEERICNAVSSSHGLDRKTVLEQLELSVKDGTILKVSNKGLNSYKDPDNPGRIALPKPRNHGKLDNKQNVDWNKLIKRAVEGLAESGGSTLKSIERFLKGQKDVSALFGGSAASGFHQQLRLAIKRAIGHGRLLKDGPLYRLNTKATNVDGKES
| Oligonucleotide | E-score |
| --- | --- |
| GGCGCCTA | 0.265 |
| AGGCAGAG | -0.186 |
| AGCTTGAA | -0.0861 |
| GACCGCCC | 0.117 |
| CATATTGC | 0.0162 |

Block 2
Target: Ras GTPase-activating protein-binding protein 1, full length (G3BP1, Homo sapiens, UniProt Q13283)
Chain of UniProt Q13283 (whole entry, looked up): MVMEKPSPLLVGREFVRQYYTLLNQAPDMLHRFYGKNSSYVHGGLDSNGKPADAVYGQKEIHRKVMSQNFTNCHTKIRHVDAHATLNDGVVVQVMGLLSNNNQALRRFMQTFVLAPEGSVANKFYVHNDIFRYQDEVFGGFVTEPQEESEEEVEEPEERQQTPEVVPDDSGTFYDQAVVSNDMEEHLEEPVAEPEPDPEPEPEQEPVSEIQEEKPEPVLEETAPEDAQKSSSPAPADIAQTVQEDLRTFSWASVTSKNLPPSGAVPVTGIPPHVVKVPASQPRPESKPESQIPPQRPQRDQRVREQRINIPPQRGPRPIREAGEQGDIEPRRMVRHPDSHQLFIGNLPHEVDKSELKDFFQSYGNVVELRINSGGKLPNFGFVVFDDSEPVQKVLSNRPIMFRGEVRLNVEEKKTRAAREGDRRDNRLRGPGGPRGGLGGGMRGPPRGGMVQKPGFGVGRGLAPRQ
Method: RNA Bind-n-Seq
Form: RNA
Medium: in vitro
Concentration: 200 nM
Setting: whole 134-nt RNA, ends assumed
With: 150 mM KCl
Relative to: input library
Direction: higher = stronger binding
Shared flanks, not repeated: GGGAGUUCUACAGUCCGACGAUC … UGGAAUUCUCGGGUGUCAAGG
| Oligonucleotide | log2 enrichment |
| --- | --- |
| CAAGUCCUGUGCUACACAUCGUAUGUACCGAAUCGGGGCCCGGGCCCGGCCCGGGGAAAGUAUUAUGUUACGCCGUUCGGAUCUGCACUU | -0.975 |
| ACCAUGCAGGUGGGCAUCUUUGGGAAGUGGGGCUAGGGGGGGAUAGGGAGGGGGGUAACACUUUGGGAACAGGUGGUCCCAGGUCGUUUC | 1.15 |
| UCCUGUGCUACACAUCGUAUGUACCGAAUCGGGGAGGGGAAAAAGGGGUUUUUUUGGGGAAAGUAUUAUGUUACGCCGUUCGGAUCUGCA | 0.533 |
| UAGGGUUCAGGAUAAGUUUGAGGUGCUGAAUUACACAAGCAUUCCUAUCUUUCUCCCGGAAGUCACCAUUGGAGCUCAUCAGACUGACCG | -0.791 |
| UGCCAGGCCCACCCCCAGGUGUUCCCGCGCCUGGGGGCCCACCCCUGUCCACCGGACCUAUAGUGGACCUGCUCCAGUACAGCCAGAAGG | 0.52 |

Block 3
Target: RNA binding protein fox-1 homolog 2, RRM domain, GST-SBP tag (RBFOX2, Homo sapiens, UniProt O43251-10, residues 100-194)
Method: RNA Bind-n-Seq
Form: RNA
Medium: in vitro
Concentration: 365 nM
Setting: natural RNA segment, single round, ends assumed
Relative to: no-protein control
Direction: higher = stronger binding
| Oligonucleotide | RBNS enrichment (R) |
| --- | --- |
| GGGAGUUCUACAGUCCGACGAUCUUUGACUUUUUGGAAUUUAACAGUUUUAUUUUGGCCUUGUACUUGCCUGUAUUAUAAUGUGAAUUUUGUAGAUGUAGGGAAUAAGUUGCUGUAAAAUGUGUGUAAAUUUGUGGAAUUCUCGGGUGCCAA | 0.891 |
| GGGAGUUCUACAGUCCGACGAUCAUAUAGUUAAACUGAGAGUAAUUCAUCUGUGAAUCUGCUUUAAUUACCUGGUGAGUAACUUAGAAAAGUGGUGUAAACUUGUACAUGGAAUUUUUUGAAUAUGCCUUAAUUGGAAUUCUCGGGUGCCAA | 1.1 |
| GGGAGUUCUACAGUCCGACGAUCAGCUGUAACAAUCUGUGAGGAUUGAGAGGAUAGGCUGGUGCUUUGAAGAAAGGCCUUGUAAGUGACAAGACAGUCCCCUGGGAAGAAAGAGAAAGGAAAUGGGCUAUUGCUGGAAUUCUCGGGUGCCAA | 0.596 |
| GGGAGUUCUACAGUCCGACGAUCAGUGGGGAGGGACAAGAGAUUCUGGAAAGUGAGCCUCCCCAUACCCUCUUUUGUUCUCCCCACCCUGAUACUUGUUAUUAAGAAAUGAAUAAAAUAAACUCACUUUUUUCUGGAAUUCUCGGGUGCCAA | 0.553 |

Block 4
Substance: PhoQ, residues 284 288 289 292 302 303 SSLVEF
Method: Sort-seq
Refers to: YFP reporter
Medium: E. coli
Setting: PhoQ-PhoP variant library
With: 10 µM Mg2+
Relative to: high Mg2+ state
Direction: higher = stronger signaling
| target | fold induction |
| --- | --- |
| PhoP, residues 12 14 15 18 19 SHWTV (Escherichia coli, UniProt P23836) | 0.564 |
| PhoP, residues 12 14 15 18 19 QYCSL (Escherichia coli, UniProt P23836) | 8.91 |
| PhoP, residues 12 14 15 18 19 STHWV (Escherichia coli, UniProt P23836) | 1.02 |

A few entries again (block 2):
| Oligonucleotide | log2 enrichment |
| --- | --- |
| UCCUGUGCUACACAUCGUAUGUACCGAAUCGGGGAGGGGAAAAAGGGGUUUUUUUGGGGAAAGUAUUAUGUUACGCCGUUCGGAUCUGCA | 0.533 |
